{"data": "Experimental data of several laboratories", "note": "Parts stem from different laboratories: compare values within a part only."}
{"data": "Series 1", "target": "Fragile X messenger ribonucleoprotein 1, C-terminal low-complexity region (Fmr1, Mus musculus, UniProt P35922)", "technique": "RNA Bind-n-Seq", "form": "RNA", "matrix": "in vitro", "concentration": "200 nM", "setting": "whole 134-nt RNA, ends assumed", "together with": "150 mM KCl", "relative to": "input library", "reading": "higher = stronger binding"}
{"Strand": "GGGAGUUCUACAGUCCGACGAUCCCUGUGCUACACAUCGUAUGUACCGAAUCGGGGCCCCCCCGGGCCCCCCCGGCCCCCCCGGAAAGUAUUAUGUUACGCCGUUCGGAUCUGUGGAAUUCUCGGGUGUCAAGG", "log2 enrichment": -0.624}
{"Strand": "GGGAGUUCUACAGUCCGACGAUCGUCCUGUGCUACACAUCGUAUGUACCGAAUCGGAAAAAGGGGAAAAAGGGAAAAAGGGAAAGUAUUAUGUUACGCCGUUCGGAUCUGCACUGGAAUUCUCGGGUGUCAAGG", "log2 enrichment": -0.373}
{"Strand": "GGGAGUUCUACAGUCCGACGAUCCCUGUGCUACACAUCGUAUGUACCGAAUCGGGGAAAGGGGAAAAAAAGGGGAAAAAGGGGAAAGUAUUAUGUUACGCCGUUCGGAUCUGCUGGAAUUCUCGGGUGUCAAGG", "log2 enrichment": -0.0735}
{"Strand": "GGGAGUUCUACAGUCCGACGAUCGUCCUGUGCUACACAUCGUAUGUACCGAAUCAAACCCCCCCAAACCCAAACCCCCAAAAAAGUAUUAUGUUACGCCGUUCGGAUCUGCACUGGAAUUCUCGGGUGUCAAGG", "log2 enrichment": 0.147}
{"Strand": "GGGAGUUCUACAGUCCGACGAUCACCAUGCAGAUGGGCAUCUUUGGGAAGUGGGGCAAGGGGGGGAUAGGGAGGGGGGUAACACUUUGGGAACAGGUGGUCCCAGGUCGUUUCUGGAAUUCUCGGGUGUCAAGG", "log2 enrichment": 0.698}
{"Strand": "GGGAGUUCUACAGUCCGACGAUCCCUCAAGUCCUGUGCUACACAUCGUAUGUACCGAAUCGGAAGGAAGGGAAGGGAAAGUAUUAUGUUACGCCGUUCGGAUCUGCACUUCCAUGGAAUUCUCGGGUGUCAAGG", "log2 enrichment": -0.186}
{"Strand": "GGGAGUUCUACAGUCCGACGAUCAGUCCUGUGCUACACAUCGUAUGUACCGAAUCGGGUUUUUGGGUUUUUGGUUUUUGGAAAGUAUUAUGUUACGCCGUUCGGAUCUGCACUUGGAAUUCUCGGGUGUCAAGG", "log2 enrichment": -0.56}
{"Strand": "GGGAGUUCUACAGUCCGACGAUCUAACUUUAGAGGAGGAUCUGAUGGAUAUGGCAGUGGACGUGGAUUUGGGGAUGGCUAUAAUGGGUAUGGAGGAAGACCUGGAGGUGGCAAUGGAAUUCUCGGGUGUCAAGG", "log2 enrichment": 0.194}
{"Strand": "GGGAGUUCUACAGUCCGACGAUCAGUCCUGUGCUACACAUCGUAUGUACCGAAUCGGGUUUUUGGGAGGGAAAAAAAGGGAAAGUAUUAUGUUACGCCGUUCGGAUCUGCACUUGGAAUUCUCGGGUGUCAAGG", "log2 enrichment": 0.219}
{"Strand": "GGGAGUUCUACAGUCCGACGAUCGCAGGAAGUAAAAACAAAUGGAAAUGCUUCGGAUAGUGGCAGGGGUGGGGGUUGCUAAGGAAAAAGUGGGAUGGGAGUGGGUAAAGAGUUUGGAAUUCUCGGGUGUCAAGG", "log2 enrichment": 0.0762}
{"data": "Series 2", "target": "Histone acetyltransferase KAT6A, both winged helices, GST fusion (KAT6A, Homo sapiens, UniProt Q92794, residues 1-181)", "technique": "protein binding microarray", "form": "double-stranded DNA, one strand shown", "matrix": "in vitro", "concentration": "not given", "setting": "8-mer, flanks averaged, mean of 2 arrays, mostly near background", "relative to": "not given", "reading": "higher = stronger binding", "Construct (chain)": "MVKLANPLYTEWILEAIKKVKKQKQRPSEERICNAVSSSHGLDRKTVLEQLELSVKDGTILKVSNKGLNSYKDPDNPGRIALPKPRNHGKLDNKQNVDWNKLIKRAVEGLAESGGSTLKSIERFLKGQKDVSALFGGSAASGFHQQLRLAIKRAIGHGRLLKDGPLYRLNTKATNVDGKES"}
{"Strand": "AATTAGGG", "E-score": -0.196}
{"Strand": "GCGCCTTA", "E-score": 0.209}
{"Strand": "AGGCTGGC", "E-score": -0.196}
{"Strand": "ACGCCAGC", "E-score": 0.0762}
{"Strand": "AGTGTAAT", "E-score": -0.129}
{"Strand": "AAAGTCCA", "E-score": -0.123}
{"Strand": "CTCCGGGA", "E-score": 0.0715}
{"Strand": "CTGTTGAC", "E-score": -0.162}
{"Strand": "GTACCTAA", "E-score": -0.114}
{"Strand": "AGCCTGAA", "E-score": -0.18}
{"Strand": "AGCAAGCC", "E-score": -0.146}
{"Strand": "ATTATACG", "E-score": 0.0599}
{"Strand": "GCGGAAAA", "E-score": 0.266}
{"Strand": "ATGTTCAG", "E-score": -0.165}
{"Strand": "CCATACTA", "E-score": -0.146}
{"Strand": "ATAATGGC", "E-score": 0.153}
{"Strand": "CCAGAACC", "E-score": -0.0645}
{"Strand": "GTTAGCCA", "E-score": -0.0703}
{"Strand": "ATCCCACC", "E-score": 0.0248}
{"Strand": "CCCCGATA", "E-score": 0.0919}
{"Strand": "ATTTACCC", "E-score": -0.16}
{"Strand": "AAAAAAGC", "E-score": 0.0403}
{"Strand": "ACGAAAAT", "E-score": -0.06}
{"Strand": "AAATCTAG", "E-score": -0.111}
{"Strand": "GCGTGTGA", "E-score": 0.215}
{"data": "Series 3", "target": "Prothrombin, mature alpha-thrombin (F2, Homo sapiens, UniProt P00734)", "technique": "aptamer microarray, sandwich", "form": "DNA with 2'F-ANA", "matrix": "in vitro", "concentration": "200 nM", "setting": "whole 15-mer aptamer, many near background", "together with": "Cy3 exosite-II aptamer, 400 nM", "reading": "higher = stronger binding", "strand": "GGTTGGTGTGGTTGG"}
{"Modification": "2'F-ANA at 1 4 5 6 7 8 9 11 13 14 15", "mean fluorescence intensity": "97.7 a.u."}
{"Modification": "2'F-ANA at 2 3 8 9 13 14 15", "mean fluorescence intensity": "386 a.u."}
{"Modification": "2'F-ANA at 1 3 5 9 14", "mean fluorescence intensity": "58 a.u."}
{"Modification": "2'F-ANA at 2 3 4 5 6 7 10", "mean fluorescence intensity": "47.2 a.u."}
{"Modification": "2'F-ANA at 1 5 8 9 10 11 12 13 14", "mean fluorescence intensity": "47.9 a.u."}
{"Modification": "2'F-ANA at 1 2 3 5 7 8 14", "mean fluorescence intensity": "47.4 a.u."}
{"Modification": "2'F-ANA at 1 2 12 15", "mean fluorescence intensity": "470 a.u."}
{"Modification": "2'F-ANA at 2 5 7 8 9 10 12 13 14 15", "mean fluorescence intensity": "49 a.u."}
{"Modification": "2'F-ANA at 7 9 11 12 13", "mean fluorescence intensity": "579 a.u."}
{"Modification": "2'F-ANA at 1 4 5 6 7 9 10 11 12 13", "mean fluorescence intensity": "45.7 a.u."}
{"Modification": "2'F-ANA at 1 3 5 6 9 10 11 12 13 14", "mean fluorescence intensity": "45.1 a.u."}
{"Modification": "2'F-ANA at 3 4 6 7 8 11", "mean fluorescence intensity": "618 a.u."}
{"Modification": "2'F-ANA at 2 3 4 5 7 9 11 12 13 14 15", "mean fluorescence intensity": "52.3 a.u."}
{"Modification": "2'F-ANA at 3 4 7 8 10 14 15", "mean fluorescence intensity": "225 a.u."}
{"Modification": "2'F-ANA at 1 3 4 5 8 10 12 13 14", "mean fluorescence intensity": "53.6 a.u."}
{"Modification": "2'F-ANA at 1 3 5 7 8 9 10 11 13 14 15", "mean fluorescence intensity": "53 a.u."}
{"Modification": "2'F-ANA at 1 7 8 11 12 13 15", "mean fluorescence intensity": "289 a.u."}
{"Modification": "2'F-ANA at 3 4 6 7 8 9 10 11 12", "mean fluorescence intensity": "278 a.u."}
{"Modification": "2'F-ANA at 2 7 10 11 12 13", "mean fluorescence intensity": "179 a.u."}
{"Modification": "2'F-ANA at 3 5 6 7 8 13 14 15", "mean fluorescence intensity": "66.4 a.u."}
{"Modification": "2'F-ANA at 2 3 8 9 10 11 12 14 15", "mean fluorescence intensity": "250 a.u."}
{"Modification": "2'F-ANA at 1 2 3 4 8 10 12 14", "mean fluorescence intensity": "49.4 a.u."}
{"Modification": "2'F-ANA at 1 2 3 4 5 6 10 14", "mean fluorescence intensity": "69.1 a.u."}
{"Modification": "2'F-ANA at 4 8 9 10", "mean fluorescence intensity": "86.4 a.u."}
{"Modification": "2'F-ANA at 1 6 7 8 10 12 13 14", "mean fluorescence intensity": "60.1 a.u."}
{"data": "Series 4", "target": "Interferon regulatory factor 5, full length, phosphomimetic (IRF5, Homo sapiens, UniProt Q13568-2, residues 1-514, K96S/S451D/S453D/S456D/S462D)", "technique": "protein-binding microarray", "form": "double-stranded DNA, one strand shown", "matrix": "in vitro", "concentration": "250 nM", "setting": "60-bp whole probe", "together with": "salmon DNA 0.4 mg/ml", "relative to": "random background probes", "reading": "higher = stronger binding", "constant ends, left off below": "GCCTAGCAC … GTCTTGATTCGCTTGACGCTGCTG"}
{"Strand": "TTAGGTCTCCTGCTGCTTTAGTGCTAG", "log fluorescence [z-score]": -0.608}
{"Strand": "GACGGTATCGGTATCGGGCCGTGCTAG", "log fluorescence [z-score]": 6.22}
{"Strand": "GACGGTCTCCTACTCCTGACGTGCTAG", "log fluorescence [z-score]": -0.0418}
{"Strand": "ATATGTATATATGTGTATATGTGCTAG", "log fluorescence [z-score]": 0.557}
{"Strand": "TTAGGTTTCTACTATCGGTTAGTGCTA", "log fluorescence [z-score]": 8.2}
{"Strand": "GACGAACTGAGTATCGAGTCGTGCTAG", "log fluorescence [z-score]": 2.01}
{"Strand": "TTAGATTTCAGAATCGATTAGTGCTAG", "log fluorescence [z-score]": 1.52}
{"Strand": "TTAGATGTCAGTATCGATTAGTGCTAG", "log fluorescence [z-score]": 6.72}
{"Strand": "TTAGGGCTCGGTCTCGGTTAGTGCTAG", "log fluorescence [z-score]": -0.282}
{"Strand": "GACGGACTGCTACTGCTGGCGTGCTAG", "log fluorescence [z-score]": -0.487}
{"Strand": "GTCGATATCGGGTATCGAGACGTGCTA", "log fluorescence [z-score]": 4.19}
{"Strand": "TTAGATATTGGGTATCGATTAGTGCTA", "log fluorescence [z-score]": 3.83}
{"Strand": "TCACCTCTAACTTTCCAACTGTGCTAG", "log fluorescence [z-score]": 0.504}
{"Strand": "GACGGTCTCTTACTGCTGACGTGCTAG", "log fluorescence [z-score]": -0.158}
{"Strand": "GACGGAATGCTTCTCCTGACGTGCTAG", "log fluorescence [z-score]": -0.27}
{"Strand": "GACGTTTTCGGTCTCGGGACGTGCTAG", "log fluorescence [z-score]": 8.32}
{"Strand": "TATGTTCACTATTTAAGACCGTGCTAG", "log fluorescence [z-score]": 0.345}
{"Strand": "TGTCCTTTTCTTTACTGATGGTGCTAG", "log fluorescence [z-score]": 1.18}
{"Strand": "TTAGATATCGGGTTTCGCTTAGTGCTA", "log fluorescence [z-score]": 5.54}
{"Strand": "GACGAACGGAGTATCGAGACGTGCTAG", "log fluorescence [z-score]": 1.23}
{"Strand": "GACGGTATCGGACTGTGGACGTGCTAG", "log fluorescence [z-score]": 0.754}
{"Strand": "TTAGGGCTGGACTTTCGGTTAGTGCTA", "log fluorescence [z-score]": 8.78}
{"Strand": "GACCGACTGGGGTTTCGGGACGTGCTA", "log fluorescence [z-score]": 1.45}
{"Strand": "CCAGGGCTCTAGAGAAATAGGTGCTAG", "log fluorescence [z-score]": -0.431}
{"Strand": "CAAATTGTCTCTGTCCCTGTGTGCTAG", "log fluorescence [z-score]": 0.254}
